Published values from different studies.
A part holds a random share of what one study measured. Several values in a cell are separate wells, animals, samples, runs or records.
Chain of UniProt P07333 (whole entry, looked up): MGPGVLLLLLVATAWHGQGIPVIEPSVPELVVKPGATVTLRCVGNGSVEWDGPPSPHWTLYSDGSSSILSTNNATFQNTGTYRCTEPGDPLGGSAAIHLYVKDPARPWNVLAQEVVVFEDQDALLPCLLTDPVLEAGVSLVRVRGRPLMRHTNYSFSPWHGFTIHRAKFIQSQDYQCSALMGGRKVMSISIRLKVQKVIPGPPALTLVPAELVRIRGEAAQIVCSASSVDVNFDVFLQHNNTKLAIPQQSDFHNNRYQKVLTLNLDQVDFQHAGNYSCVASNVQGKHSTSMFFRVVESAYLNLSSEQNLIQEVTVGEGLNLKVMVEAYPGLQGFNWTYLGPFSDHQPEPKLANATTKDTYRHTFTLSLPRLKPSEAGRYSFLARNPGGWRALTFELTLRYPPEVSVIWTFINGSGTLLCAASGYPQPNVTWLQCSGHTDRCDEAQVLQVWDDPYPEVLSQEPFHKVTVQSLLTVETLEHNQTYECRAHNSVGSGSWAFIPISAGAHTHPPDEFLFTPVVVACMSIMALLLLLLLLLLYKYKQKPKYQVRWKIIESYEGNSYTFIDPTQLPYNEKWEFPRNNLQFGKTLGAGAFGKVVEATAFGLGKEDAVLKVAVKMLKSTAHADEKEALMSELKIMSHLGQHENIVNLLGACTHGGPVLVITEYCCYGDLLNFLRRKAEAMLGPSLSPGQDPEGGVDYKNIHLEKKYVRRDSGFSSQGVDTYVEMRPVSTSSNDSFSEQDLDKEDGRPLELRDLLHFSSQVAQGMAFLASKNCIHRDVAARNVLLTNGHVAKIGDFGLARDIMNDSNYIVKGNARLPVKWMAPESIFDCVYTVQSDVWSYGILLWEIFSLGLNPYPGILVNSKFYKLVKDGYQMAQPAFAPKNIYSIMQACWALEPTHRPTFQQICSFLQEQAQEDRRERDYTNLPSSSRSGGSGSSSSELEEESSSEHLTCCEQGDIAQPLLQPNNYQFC
Chain of UniProt P42336 (whole entry, looked up): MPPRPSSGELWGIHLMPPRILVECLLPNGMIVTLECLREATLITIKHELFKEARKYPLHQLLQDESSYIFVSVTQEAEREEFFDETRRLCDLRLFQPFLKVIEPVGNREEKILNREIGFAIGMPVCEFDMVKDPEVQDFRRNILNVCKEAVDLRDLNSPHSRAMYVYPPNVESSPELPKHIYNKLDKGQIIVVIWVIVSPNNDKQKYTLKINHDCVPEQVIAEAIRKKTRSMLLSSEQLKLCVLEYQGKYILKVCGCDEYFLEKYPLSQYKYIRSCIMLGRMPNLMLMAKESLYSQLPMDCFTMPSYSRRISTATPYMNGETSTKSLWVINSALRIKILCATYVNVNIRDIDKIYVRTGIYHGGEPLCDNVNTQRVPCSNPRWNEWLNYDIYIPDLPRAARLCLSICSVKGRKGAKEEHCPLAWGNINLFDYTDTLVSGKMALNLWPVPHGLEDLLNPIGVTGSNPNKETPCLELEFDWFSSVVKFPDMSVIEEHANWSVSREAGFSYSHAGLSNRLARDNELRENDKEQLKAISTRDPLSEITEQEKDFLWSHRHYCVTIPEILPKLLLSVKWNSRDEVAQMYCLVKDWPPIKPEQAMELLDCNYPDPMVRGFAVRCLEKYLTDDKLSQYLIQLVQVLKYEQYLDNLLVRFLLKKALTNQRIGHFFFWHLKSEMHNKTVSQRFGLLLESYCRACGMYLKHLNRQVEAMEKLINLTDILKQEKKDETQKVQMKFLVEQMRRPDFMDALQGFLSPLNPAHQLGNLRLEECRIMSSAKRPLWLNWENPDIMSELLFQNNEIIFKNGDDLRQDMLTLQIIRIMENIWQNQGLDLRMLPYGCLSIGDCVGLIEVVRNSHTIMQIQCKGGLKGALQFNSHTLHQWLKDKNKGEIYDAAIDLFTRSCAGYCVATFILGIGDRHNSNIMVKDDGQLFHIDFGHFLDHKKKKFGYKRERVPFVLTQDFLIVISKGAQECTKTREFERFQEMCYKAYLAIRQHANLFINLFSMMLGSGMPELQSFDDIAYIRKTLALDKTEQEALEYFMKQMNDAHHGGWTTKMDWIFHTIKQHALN
Chain of UniProt Q9H2X6 (whole entry, looked up): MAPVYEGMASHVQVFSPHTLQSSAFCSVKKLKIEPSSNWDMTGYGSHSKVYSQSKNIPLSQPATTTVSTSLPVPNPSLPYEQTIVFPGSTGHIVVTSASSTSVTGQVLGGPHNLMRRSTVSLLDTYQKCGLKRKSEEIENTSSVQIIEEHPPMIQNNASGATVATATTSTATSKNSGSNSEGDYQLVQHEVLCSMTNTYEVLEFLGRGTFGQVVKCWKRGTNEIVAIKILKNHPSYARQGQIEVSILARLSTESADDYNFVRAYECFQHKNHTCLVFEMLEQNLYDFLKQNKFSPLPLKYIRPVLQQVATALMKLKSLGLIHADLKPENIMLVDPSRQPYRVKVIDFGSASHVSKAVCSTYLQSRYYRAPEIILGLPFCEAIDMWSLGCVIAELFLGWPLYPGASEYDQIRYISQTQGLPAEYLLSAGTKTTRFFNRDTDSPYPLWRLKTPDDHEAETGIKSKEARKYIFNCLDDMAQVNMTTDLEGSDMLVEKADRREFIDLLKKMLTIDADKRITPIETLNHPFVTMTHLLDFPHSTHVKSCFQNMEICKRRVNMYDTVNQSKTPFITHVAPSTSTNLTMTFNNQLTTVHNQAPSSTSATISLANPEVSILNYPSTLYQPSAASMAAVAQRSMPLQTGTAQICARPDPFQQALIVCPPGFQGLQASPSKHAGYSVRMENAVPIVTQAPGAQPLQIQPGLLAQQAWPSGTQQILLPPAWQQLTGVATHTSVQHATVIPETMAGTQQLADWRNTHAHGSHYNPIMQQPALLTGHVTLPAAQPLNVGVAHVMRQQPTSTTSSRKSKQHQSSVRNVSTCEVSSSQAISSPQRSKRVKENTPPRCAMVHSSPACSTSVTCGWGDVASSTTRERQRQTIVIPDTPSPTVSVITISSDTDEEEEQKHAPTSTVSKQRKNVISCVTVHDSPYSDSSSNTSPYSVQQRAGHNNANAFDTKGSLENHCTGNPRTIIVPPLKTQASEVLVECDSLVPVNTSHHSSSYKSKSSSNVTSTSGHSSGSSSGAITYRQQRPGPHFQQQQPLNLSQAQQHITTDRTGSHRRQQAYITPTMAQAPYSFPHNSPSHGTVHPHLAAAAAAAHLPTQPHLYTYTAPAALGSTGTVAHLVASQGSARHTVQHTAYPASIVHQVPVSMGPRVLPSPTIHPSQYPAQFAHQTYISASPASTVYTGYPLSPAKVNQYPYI
Chain of UniProt Q9H0K1 (whole entry, looked up): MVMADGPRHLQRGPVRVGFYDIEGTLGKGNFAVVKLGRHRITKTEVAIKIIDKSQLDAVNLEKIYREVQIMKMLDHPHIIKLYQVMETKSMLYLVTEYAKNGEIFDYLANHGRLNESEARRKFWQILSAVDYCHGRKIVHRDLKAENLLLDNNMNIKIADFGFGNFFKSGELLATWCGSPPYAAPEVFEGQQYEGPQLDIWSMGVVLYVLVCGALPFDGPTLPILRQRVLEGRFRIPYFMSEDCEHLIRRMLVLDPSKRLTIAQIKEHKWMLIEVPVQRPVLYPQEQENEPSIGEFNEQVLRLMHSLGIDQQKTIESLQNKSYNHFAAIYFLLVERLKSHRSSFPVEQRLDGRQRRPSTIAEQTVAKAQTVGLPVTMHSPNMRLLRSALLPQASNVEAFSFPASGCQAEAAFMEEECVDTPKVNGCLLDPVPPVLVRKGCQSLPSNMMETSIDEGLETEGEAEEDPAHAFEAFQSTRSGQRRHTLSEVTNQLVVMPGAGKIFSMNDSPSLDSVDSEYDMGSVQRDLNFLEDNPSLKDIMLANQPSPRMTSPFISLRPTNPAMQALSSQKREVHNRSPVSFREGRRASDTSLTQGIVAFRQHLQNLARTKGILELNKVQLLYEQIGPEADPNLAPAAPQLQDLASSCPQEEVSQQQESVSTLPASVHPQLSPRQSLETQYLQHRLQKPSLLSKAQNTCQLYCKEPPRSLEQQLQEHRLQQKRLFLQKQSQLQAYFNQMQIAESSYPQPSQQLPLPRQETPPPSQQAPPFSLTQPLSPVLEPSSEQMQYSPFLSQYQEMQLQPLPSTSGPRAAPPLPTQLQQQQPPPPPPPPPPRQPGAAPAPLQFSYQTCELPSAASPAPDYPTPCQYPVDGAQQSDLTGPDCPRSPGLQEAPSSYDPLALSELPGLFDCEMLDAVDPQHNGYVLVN
Chain of UniProt P49760 (whole entry, looked up): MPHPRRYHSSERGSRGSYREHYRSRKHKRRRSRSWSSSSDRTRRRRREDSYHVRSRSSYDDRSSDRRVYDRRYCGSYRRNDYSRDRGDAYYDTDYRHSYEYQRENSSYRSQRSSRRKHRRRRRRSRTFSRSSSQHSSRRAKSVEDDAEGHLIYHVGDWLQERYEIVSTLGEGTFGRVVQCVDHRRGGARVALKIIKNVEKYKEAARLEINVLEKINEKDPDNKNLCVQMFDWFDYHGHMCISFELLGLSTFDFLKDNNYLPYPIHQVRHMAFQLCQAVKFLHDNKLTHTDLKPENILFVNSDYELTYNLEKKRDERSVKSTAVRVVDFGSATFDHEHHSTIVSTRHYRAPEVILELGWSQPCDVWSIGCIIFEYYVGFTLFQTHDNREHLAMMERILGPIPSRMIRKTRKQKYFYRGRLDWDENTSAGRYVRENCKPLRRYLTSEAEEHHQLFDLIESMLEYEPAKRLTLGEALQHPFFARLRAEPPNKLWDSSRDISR
Chain of UniProt Q8N752 (whole entry, looked up): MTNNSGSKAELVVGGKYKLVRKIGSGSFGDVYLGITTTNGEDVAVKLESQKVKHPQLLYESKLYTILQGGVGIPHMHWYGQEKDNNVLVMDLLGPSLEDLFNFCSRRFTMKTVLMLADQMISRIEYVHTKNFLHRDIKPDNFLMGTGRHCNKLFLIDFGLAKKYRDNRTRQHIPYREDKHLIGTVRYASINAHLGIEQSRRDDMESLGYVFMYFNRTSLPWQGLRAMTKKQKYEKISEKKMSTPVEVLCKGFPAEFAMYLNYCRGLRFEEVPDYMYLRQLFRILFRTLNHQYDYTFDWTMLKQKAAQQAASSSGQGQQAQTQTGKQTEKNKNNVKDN

Series 1
Cell line: mouse MPNST tumor cells
Technique: high-content nuclear imaging
Refers to: cell number
Concentration: 10 µM
Time: 12 h
Setting: mean of 2 replicates
Baseline: plate mean
Direction: higher = more cells
Endpoint: nuclei count
NC[C@@H]1O[C@H](O[C@H]2[C@@H](O)[C@H](O[C@@H]3[C@@H](O)[C@H](N)C[C@H](N)[C@H]3O[C@H]3O[C@H](CO)[C@@H](O)[C@H](O)[C@H]3N)O[C@@H]2CO)[C@H](N)[C@@H](O)[C@@H]1O: -0.806 z-score and 0.308 z-score
COCCOC(=O)C1=C(C)NC(C)=C(C(=O)OC/C=C/c2ccccc2)C1c1cccc([N+](=O)[O-])c1 (stereo not drawn): 2.72 z-score and 3.58 z-score
CC(C)NCC(O)c1ccc(O)c(O)c1 (single isomer, unassigned; (+)): 0.235 z-score
COc1cc2c(cc1OC)CN(C(=O)C=Cc1c(-c3ccccc3)n(C)c3ncccc13)CC2: -0.34 z-score
CC(C(=O)O)c1ccc(C(=O)c2ccccc2)s1 (stereo not drawn): 0.849 z-score
CNC(=C[N+](=O)[O-])NCCSCc1csc(CN(C)C)n1: 0.557 z-score and 2.04 z-score
CC(=O)OCC(=O)[C@@]1(O)CC[C@H]2[C@@H]3CCC4=CC(=O)CC[C@]4(C)[C@@]3(F)[C@@H](O)C[C@@]21C: 3.8 z-score
CCOC(=O)[C@H](CCc1ccccc1)N[C@@H](C)C(=O)N1Cc2ccccc2C[C@H]1C(=O)O: 2.66 z-score
O=C(Nc1cccnc1)N1CCC(Cc2cccc(Oc3ccc(C(F)(F)F)cn3)c2)CC1: 0.327 z-score

Series 2
SMILES: Cc1ccc(S(=O)(=O)/C=C/C#N)cc1
Observed: enzyme activity
Mode: inhibitor
Concentration: 0.5 µM
Baseline: control
Endpoint: remaining activity
Serine/threonine-protein kinase SIK2 (SIK2, Homo sapiens, UniProt Q9H0K1): 106%
Dual specificity protein kinase CLK1 (CLK1, Homo sapiens, UniProt P49759): 107%
Muscle, skeletal receptor tyrosine-protein kinase (MUSK, Homo sapiens, UniProt O15146): 107%
Ephrin type-A receptor 2 (EPHA2, Homo sapiens, UniProt P29317): 105%
Tyrosine-protein kinase JAK1 (JAK1, Homo sapiens, UniProt P23458): 98.2%
Ribosomal protein S6 kinase alpha-3 (RPS6KA3, Homo sapiens, UniProt P51812): 95.9%

Series 3
SMILES: CC(C)n1cnc(-c2ccc(F)cc2)c1-c1ncc(C(=O)Nc2ccc(N3CCN(C)CC3)cc2)[nH]1
Technique: phase 2a clinical trial
Host: patients with idiopathic pulmonary fibrosis
Endpoint: patients with treatment-emergent adverse events
refers to: gastro-oesophageal reflux disease; 30 mg once daily, Grade 5: 0%
refers to: first degree atrioventricular block; dose not given, Grade 5, all drug arms: 0%
refers to: carbon dioxide decreased; 30 mg once daily, Grade 4: 0%
refers to: gastro-oesophageal reflux disease; 60 mg once daily, Grade 2: 0%
refers to: lumbar vertebral fracture; 60 mg once daily, Grade 1, maximum intensity: 0%
refers to: benign prostatic hyperplasia; 60 mg once daily, Grade 2, maximum intensity: 0%
refers to: C-reactive protein increased; 60 mg once daily, Grade 1: 0%
refers to: C-reactive protein increased; dose not given, Grade 4, all drug arms total: 0%
refers to: carbon dioxide decreased; 60 mg once daily, Grade 5: 0%

Series 4
SMILES: CCS(=O)(=O)c1cc2cc(C[C@](O)(CC(C)(C)c3ccc(F)cc3C(N)=O)C(F)(F)F)[nH]c2cn1
Observed: cell-free assay
Technique: competition with immobilised ligand
Concentration: 1 µM
Endpoint: remaining binding
Serine/threonine-protein kinase MAK (MAK, Homo sapiens, UniProt P20794): 100%
Phosphatidylinositol 4,5-bisphosphate 3-kinase catalytic subunit alpha isoform (PIK3CA, Homo sapiens, UniProt P42336): 81%
Ephrin type-B receptor 3 (EPHB3, Homo sapiens, UniProt P54753): 100%
Serine/threonine-protein kinase Nek2 (NEK2, Homo sapiens, UniProt P51955): 100%
Serine/threonine-protein kinase/endoribonuclease IRE1 (ERN1, Homo sapiens, UniProt O75460): 91%
Casein kinase I isoform alpha-like (CSNK1A1L, Homo sapiens, UniProt Q8N752): 100%
Mitogen-activated protein kinase 7 (MAPK7, Homo sapiens, UniProt Q13164): 97%
Serine/threonine-protein kinase DCLK2 (DCLK2, Homo sapiens, UniProt Q8N568): 100%
Phosphatidylinositol 4-phosphate 5-kinase type-1 alpha (PIP5K1A, Homo sapiens, UniProt Q99755): 100%
Cyclin-dependent kinase 15 (CDK15, Homo sapiens, UniProt Q96Q40): 88%
Dual specificity protein kinase CLK2 (CLK2, Homo sapiens, UniProt P49760): 100%
Macrophage colony-stimulating factor 1 receptor (CSF1R, Homo sapiens, UniProt P07333): 100%
Homeodomain-interacting protein kinase 2 (HIPK2, Homo sapiens, UniProt Q9H2X6): 100%
Interleukin-1 receptor-associated kinase 3 (IRAK3, Homo sapiens, UniProt Q9Y616): 96%
Serine/threonine-protein kinase Sgk1 (SGK1, Homo sapiens, UniProt O00141): 100%
